Experimental data pooled from the literature.
Each line is one published result; not all experiments were run side by side. Numbers after ± are the reported error.
ABCB1: ATP-dependent translocase ABCB1 (ABCB1, Homo sapiens, UniProt P08183)

| SMILES | target | assay | test system | setting | how to read | measurement | result |
| --- | --- | --- | --- | --- | --- | --- | --- |
| COc1ccc(-c2cc3nc(-c4ccccc4)cc(N4CCN(C(=O)c5ccoc5)CC4)n3n2)cc1 | ABCB1 | JC-1 efflux, inhibitor | Jurkat-DNR | – | – | IC50 | 1.44 ± 0.7 µM |
| C[C@@H](Oc1cc(-c2cnn(C3CCNCC3)c2)cnc1N)c1c(Cl)ccc(F)c1Cl | ABCB1 | transport | MDCK-MDR1 | 10 µM, 90 min | relative to: B-A over A-B | efflux ratio | 10 |
| CC(=O)O[C@H]1C(=O)[C@@]2(C)[C@H]([C@H](OC(=O)c3ccccc3)[C@]3(O)C[C@H](OC(=O)[C@H](O)[C@@H](NC(=O)c4ccccc4)c4ccccc4)C(C)=C1C3(C)C)[C@]1(OC(C)=O)CO[C@@H]1C[C@@H]2O | ABCB1 | ATPase activity, substrate | membranes | with: ATP 1 mM | – | Vmax | 9.5 ± 1 nmol Pi/min/mg protein |
| CCOC(=O)c1csc([C@@H](NC(=O)c2csc([C@@H](NC(=O)OC(C)(C)C)C(C)C)n2)C(C)C)n1 | ABCB1 | calcein-AM efflux, flow cytometry | HeLa transduced with BacMam ABCB1 | 20 µM, 10 min, 5% FBS, with: calcein-AM 0.5 µM | relative to: 1 µM tariquidar | inhibition | 55% |
| C[C@@H](Oc1cc(-c2cnn(C3CCNCC3)c2)cnc1N)c1c(Cl)ccc(F)c1Cl | ABCB1 | – | LLC-PK1 cells expressing human ABCB1 | 3.5 h, with: zosuquidar 1 µM | apical to basolateral | Papp | 4.79 ± 1.05 ×10⁻⁶ cm/s |
| O=C(c1ccoc1)N1CCN(c2cc(-c3ccco3)nc3cc(-c4ccco4)nn23)CC1 | ABCB1 | JC-1 efflux, inhibitor | Jurkat-DNR | – | – | IC50 | 1.7 µM |
| CCOC(=O)c1csc([C@@H](NC(=O)c2csc([C@@H](N)C(C)C)n2)C(C)C)n1 | ABCB1 | Bodipy-FL-prazosin efflux, flow cytometry | HeLa transduced with BacMam ABCB1 | 20 µM, 45 min, 5% FBS | relative to: 1 µM tariquidar | inhibition | 13% |
| COc1cccc(-c2cc(N3CCN(C(=O)c4ccoc4)CC3)n3nc(-c4ccccc4)cc3n2)c1 | ABCB1 | JC-1 efflux, inhibitor | Jurkat-DNR | – | – | IC50 | 16.4 µM |
| CC(C)[C@@H]1NC(=O)c2csc(n2)[C@H](C(C)C)NC(=O)c2csc(n2)[C@H](C(C)C)NC(=O)c2csc1n2 | ABCB1 | efflux transport, inhibitor, flow cytometry | HeLa, BacMam P-gp transduced | 10 µM, 45 min, with: Bodipy-FL-prazosin | relative to: 1 µM tariquidar | inhibition | 89% |
| O=C(c1ccccc1Cl)N1CCN(c2cc(-c3ccccc3)nc3cc(-c4cccc(Cl)c4)nn23)CC1 | ABCB1 | JC-1 efflux, inhibitor | Jurkat-DNR | – | – | IC50 | 1.85 ± 0.75 µM |
| CC(C)(C)c1nc(-c2cccc(NS(=O)(=O)c3c(F)cccc3F)c2F)c(-c2ccnc(N)n2)s1 | ABCB1 | transport | MDCK-MDR1 | 10 µM, 90 min | relative to: B-A over A-B | efflux ratio | 17.9 |
| CC1=N[C@]2(C(=O)CO)[C@@H](C[C@H]3[C@@H]4C[C@@H](O)C5=CC(=O)C=C[C@]5(C)[C@H]4[C@@H](O)C[C@@]32C)O1 | ABCB1 | transport, inhibitor, vesicular transport | HEK293 inside-out vesicles | – | – | IC50 | 19.8 µM |
| CC(C)[C@H](NC(=O)OC(C)(C)C)c1nc(C(=O)O)cs1 | ABCB1 | Bodipy-FL-prazosin efflux, flow cytometry | HeLa transduced with BacMam ABCB1 | 20 µM, 45 min, 5% FBS | relative to: 1 µM tariquidar | inhibition | 10% |
| COC(=O)c1ccccc1-c1c2ccc(=N)cc-2oc2cc(N)ccc12 | ATP-dependent translocase ABCB1 (ABCB1, Homo sapiens, UniProt P08183, Y953F) | zero-trans efflux, substrate | HEK293 transfected with P-gp Y953F | 0.53 µM, pH 7.4, normalised to surface expression | – | efflux rate constant | 54 ± 12% |
| Cc1ccc(Nc2nccc(N(C)c3ccc4c(C)n(C)nc4c3)n2)cc1S(N)(=O)=O | ABCB1 | bidirectional transport | MDCK-MDR1 | 5 µM, 240 min, with: canertinib 5 µM | relative to: B-A over A-B | efflux ratio | 1.2 |
| O=C(c1ccccc1)N1CCN(c2cc(-c3ccccc3)nc3cc(-c4cccc(F)c4)nn23)CC1 | ABCB1 | JC-1 efflux, inhibitor | Jurkat-DNR | – | – | IC50 | 4.34 ± 2.09 µM |
| CC(C)[C@H](NC(=O)OC(C)(C)C)c1nc(C(=O)N[C@H](c2nc(C(=O)N[C@H](c3nc(C(=O)O)cs3)C(C)C)cs2)C(C)C)cs1 | ABCB1 | efflux transport, inhibitor, flow cytometry | HeLa, transduced with BacMam P-gp | 10 µM, 10 min, 5% FBS, with: calcein-AM 0.5 µM | relative to: tariquidar 1 µM | inhibition | < 5% |
| CC[C@]1(O)C[C@@H]2CN(CCc3c([nH]c4ccccc34)[C@@](C(=O)OC)(c3cc4c(cc3OC)N(C)[C@H]3[C@@](O)(C(=O)OC)[C@H](OC(C)=O)[C@]5(CC)C=CCN6CC[C@]43[C@@H]65)C2)C1 | ABCB1 | substrate | MDCK-II overexpressing MDR1 | 9.3 nM, 60 min, 37 °C, with: rucaparib 2 M | relative to: vector control cells | intracellular accumulation | 20.1 ± 2.6% |
| O=C(c1ccoc1)N1CCN(c2cc(-c3ccncc3)nc3cc(-c4cccc(Cl)c4)nn23)CC1 | ABCB1 | JC-1 efflux, inhibitor | Jurkat-DNR | – | – | IC50 | 3.68 ± 0.35 µM |
| CCOC(=O)c1csc([C@@H](NC(=O)OC(C)(C)C)C(C)C)n1 | ABCB1 | Bodipy-FL-prazosin efflux, flow cytometry | HeLa transduced with BacMam ABCB1 | 20 µM, 45 min, 5% FBS | relative to: 1 µM tariquidar | inhibition | 10% |
| Cc1cc(Nc2ncnc3ccc(NC4=NC(C)(C)CO4)cc23)ccc1Oc1ccn2ncnc2c1 | ABCB1 | substrate, bidirectional transwell permeability | MDCKII cells transfected with ABCB1 | 1 µM, 1 h, pH 7.4 | relative to: without over with elacridar | net efflux ratio | 13.7 |
| COc1ccc(-c2cc(N3CCN(C(=O)c4ccoc4)CC3)n3nc(-c4ccccc4)cc3n2)cc1 | ABCB1 | JC-1 efflux, inhibitor | Jurkat-DNR | – | – | IC50 | 4.55 µM |
| COc1ccc(CNC(=O)c2csc([C@@H](NC(=O)c3csc([C@@H](NC(=O)OC(C)(C)C)C(C)C)n3)C(C)C)n2)c(OC)c1 | ABCB1 | calcein-AM efflux, flow cytometry | HeLa transduced with BacMam ABCB1 | 10 µM, 10 min, 5% FBS, with: calcein-AM 0.5 µM | relative to: 1 µM tariquidar | inhibition | 91% |
